Published values pooled from the literature.
Numbered parts are unrelated; each lists some results of a single study.

Set 1
Target: RING finger protein unkempt homolog, zinc fingers 1-6, GST-SBP tag (UNK, Homo sapiens, UniProt Q9C0B0, residues 30-357)
Technique: RNA Bind-n-Seq
Molecule type: RNA
Sample: in vitro
Tested at: not given
Notes: RNA with constant flanks, human-mouse chimeric sites, ends assumed
Reference: input RNA pool
Reading: higher = stronger binding
Residues (chain): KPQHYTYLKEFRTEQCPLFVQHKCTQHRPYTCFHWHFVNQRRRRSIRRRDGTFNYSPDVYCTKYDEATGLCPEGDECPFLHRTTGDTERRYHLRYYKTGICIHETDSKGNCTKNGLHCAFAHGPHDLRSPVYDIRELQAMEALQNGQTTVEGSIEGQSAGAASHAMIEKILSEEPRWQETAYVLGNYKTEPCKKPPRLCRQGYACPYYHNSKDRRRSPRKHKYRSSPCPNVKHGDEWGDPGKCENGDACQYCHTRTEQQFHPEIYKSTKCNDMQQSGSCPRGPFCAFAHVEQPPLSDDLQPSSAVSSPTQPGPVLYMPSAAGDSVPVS
With `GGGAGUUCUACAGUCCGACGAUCUACUGCUGCUUUCAACUUAAAUCACUGAGGCAUCUCUACUGUUCUGUGAGCAUCAGGACUGUAGCGCUGUGUCACCACAGAUGAGAACAGAAGCAGCCUUUCUGUGGAGGGUGGGAAUGACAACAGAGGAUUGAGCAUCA` the bound/input enrichment was 0.157 ratio.
`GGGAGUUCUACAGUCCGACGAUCAGAAUCUUGGGACUGUUUUACUUAAUUGGUCAUUGAUAGCUUAACAAACAUGGAGAUAAGAUUAGAAGUUUUGACAUCAACAGGUAUUAAGCAGAAAAAACCAUGGCCACGUGUCUCCUGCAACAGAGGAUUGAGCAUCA` has a bound/input enrichment of 0.309 ratio.
With `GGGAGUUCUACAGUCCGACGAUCACCUCCCCCUCCCGCCUCACCCCACCCAAGAAAGAAAGAAAGUUUUUGGCGUUUCUUUUCCUUCCCCAUACAAAGUGGUUUUUACCACCCCCGCAAGGGUCUAUCGAAGGGCUUGACGGACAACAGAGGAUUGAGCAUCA` the bound/input enrichment was 0.491 ratio.
`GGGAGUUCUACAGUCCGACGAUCAGAGAAAUGAGAAAGAAUCUUACACAAGAUGAGAUGCAAAGAAUGUCUACUAGAGUCCUUUUGGCGACUCUUUCCAUUCCUAUUACUCCUGAGCGAACGGAUAUUGCUCGACUUUUGGAUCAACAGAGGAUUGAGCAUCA` gave a bound/input enrichment of 0.0963 ratio.
The bound/input enrichment of `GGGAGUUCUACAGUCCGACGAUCUUAAUCCCCUUUACUGCUCCCCCACUUCUCAUGGUAAUAACAAAGUCUUAUAUCCCCGUCCUAGCUUUCACUCAGAUGGCUUAUGGAGCCGGUUUCCUAUCUUUCUUGGGAGGGAUCAGACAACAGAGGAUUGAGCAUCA` is reported as 0.19 ratio.
With `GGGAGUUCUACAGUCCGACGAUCAGGAGGAGGUUAAAGGGUGAGAGUGGGGUGGAAGACUGUGUCAUGGCCCUAGAAACCCUGUUCAGUGUUCUGCUUUCUCUGUGCAGACUGAUGGCCCCUUACACGCCCUUUCUGACUGAGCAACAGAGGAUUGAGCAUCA` the bound/input enrichment was 0.0479 ratio.
For `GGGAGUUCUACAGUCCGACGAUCUUCCCAACCUCCCGCCUCACCCCACCCCCGCUUUUUGGAAAGUUUUUGGCGUUUCUUUUCCUUCCCCAUACAAAGUGAUUACAGUUUCCCCCGCAAGGGUCUAUCGAUUCACCCUUCGGACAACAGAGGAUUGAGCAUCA`, the bound/input enrichment was 0.604 ratio.
With `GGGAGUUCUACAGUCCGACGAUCUUGCUACUGACUCCCUGGGUCAAGUUCCUGUGGGAAUCAUACAGGCAGUGUUUGGACCUUCUUCGAAACAAUUCUAGAGUAGAGCGCCUGUACCAUGAUAUUGCCCAACAAGCUUUCAAACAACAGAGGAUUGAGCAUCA` the bound/input enrichment was 0.144 ratio.
`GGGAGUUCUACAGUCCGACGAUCAUUGUUGAAGCUAACCCACUUUUAGAAGCAUUUGGAAAUGCAAAGACUGUUCGCAACAAUAAUAGCAGUCGAUUUGGAAAAUUUGUAGAAAUUCAUUUCAAUGAAAAGAGUUCGGUUGUUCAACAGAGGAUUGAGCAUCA` has a bound/input enrichment of 0.595 ratio.
The bound/input enrichment of `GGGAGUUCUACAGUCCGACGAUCAGGAGGAGGUUAAAGGGUGAAAAUGGGGUGGAAGACUGUGUCAUGGCCCUAGAAACCCUGUUCAGUGUCCUGCUUUCUCUGUGCAGACUGAUGGCCCCUUACACGCCCUUUCUGACUGAGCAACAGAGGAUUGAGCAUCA` is reported as 0.0504 ratio.
With `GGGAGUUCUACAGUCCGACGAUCCUAGCAGUCCAGCAGCUAGAAGGAGCCUUGAGACAAACACUCCACACACAGGGAAGGCGAUAACAUUGUACAUUGGUUUACAUUUUUUCCCCCUGUGGAUUUUUCUAUCCUAGUGCUUGCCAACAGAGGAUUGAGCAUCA` the bound/input enrichment was 0.403 ratio.

Set 2
Target: Interferon regulatory factor 5, full length, phosphomimetic (IRF5, Homo sapiens, UniProt Q13568-2, residues 1-514, K96S/S451D/S453D/S456D/S462D)
Technique: protein-binding microarray
Molecule type: double-stranded DNA, one strand shown
Sample: in vitro
Tested at: 250 nM
Notes: 60-bp whole probe
With: salmon DNA 0.4 mg/ml
Reference: random background probes
Reading: higher = stronger binding
Constant ends, left off below: GCCTAGCAC … GTCTTGATTCGCTTGACGCTGCTG
`GGCGGACTGGGACTGGGGACGTGCTAG` has a log fluorescence of -0.719 z-score.
`CTGTTTCTACTGTCTGTTTCCGTGCTA` has a log fluorescence of 2.59 z-score.
`GACGGTTCGGGTTTCGGGACGTGCTAG` gave a log fluorescence of 1.73 z-score.
`GACGGTTTCGACTATCGGGAAGTGCTA` has a log fluorescence of 7.48 z-score.
`GACGGTTTCGGGTACCGGGACGTGCTA` gave a log fluorescence of 7.91 z-score.
For `TCATTACTTTCTATCTCACTGTGCTAG`, the log fluorescence was 5.59 z-score.
For `TTAGGTCTCCGTCTCCTTTAGTGCTAG`, the log fluorescence was -0.308 z-score.
With `GACGATCTCACTTTCGAGACGTGCTAG` the log fluorescence was 6.41 z-score.
`GACGATATCAGACTGGGGACGTGCTAG` gave a log fluorescence of 0.357 z-score.
With `TCACCTTTCTCAACCTCACTGTGCTAG` the log fluorescence was 0.864 z-score.
The log fluorescence of `GACGGTATCCCTATCCTGACGTGCTAG` is reported as -0.093 z-score.
The log fluorescence of `TTAGGACTGCTTCTCCTCTAGTGCTAG` is reported as -0.268 z-score.
`TTACGACTGGGTCTCGGTTAGTGCTAG` gave a log fluorescence of 0.683 z-score.
`GACGATATCGGGCATCGAGACGTGCTA` gave a log fluorescence of 0.991 z-score.
With `TTAGGACTAGGTCTCGGTTAGTGCTAG` the log fluorescence was 0.127 z-score.
`GACGAACTGAGTTTCCAGACGTGCTAG` has a log fluorescence of -0.0914 z-score.
The log fluorescence of `TTTGATTTCGGGTTTCGATTAGTGCTA` is reported as 9.27 z-score.
With `TTAGGTATCGGACTGGTTTAGTGCTAG` the log fluorescence was 1.6 z-score.
`TACGGTCTCCTTTTCCTGACGTGCTAG` has a log fluorescence of 0.304 z-score.
With `TTAGGACTGGACATTCGGTTAGTGCTA` the log fluorescence was 0.282 z-score.
For `AAGGTATTATTTATTGTAGCGTGCTAG`, the log fluorescence was 0.376 z-score.
With `GAGGGTATCGGTCTCGGGACGTGCTAG` the log fluorescence was 3.31 z-score.
The log fluorescence of `TCAATTGTGGGTCTTGCACTGTGCTAG` is reported as -0.0641 z-score.
With `TTAGGTTTCGAATATCGGTTAGTGCTA` the log fluorescence was 7.09 z-score.
`TTAGATATCGGGTGTCGATTAGTGCTA` has a log fluorescence of 2.37 z-score.

Set 3
Cell line: yeast with cyclin A1-Cln2 chimera
Effect on: cell growth
Mode: binder
Technique: competitive growth deep sequencing
Molecule type: peptide
Tested at: concentration not given
Notes: peptide tiling library
Reading: direction not given
`EPKTLFLGAGDFQF` — result for “growth enrichment score”: 0.412.
Under “growth enrichment score”, `LRRKLFLDGNGSIS` is recorded as -0.121.
`EAAPPTQEAQGETEPT`: “growth enrichment score” 0.353.
For `QYQVVDDIVSKLVFDF`, “growth enrichment score” read 0.0469.
`RSLKLDGLLEEN`: “growth enrichment score” -0.567.
`GLPDFVFQQQPVESEA`: “growth enrichment score” 0.67.
`VEEEFFALRKRTPSAG` — result for “growth enrichment score”: 0.92.
For `AKRSLGFLPQPVPL`, “growth enrichment score” read 0.509.
Under “growth enrichment score”, `KPHVSDEEEEEPPFYH` is recorded as 0.666.
`KPKPVKPVTFSTGIKM`: “growth enrichment score” -0.715.
Under “growth enrichment score”, `ALLRRLQDVANDRGSH` is recorded as 0.526.
Under “growth enrichment score”, `IQKKLRFEDTLEFVGF` is recorded as 0.0385.
`ARKRLELGNLGNPQ`: “growth enrichment score” -0.746.
Under “growth enrichment score”, `RDLFDCDFGDLTPLDF` is recorded as -0.0161.

Set 4
Target: Histone acetyltransferase KAT6A, winged helix 1, GST fusion (KAT6A, Homo sapiens, UniProt Q92794, residues 1-85)
Technique: protein binding microarray
Molecule type: double-stranded DNA, one strand shown
Sample: in vitro
Tested at: not given
Notes: 8-mer, flanks averaged, mean of 2 arrays, mostly near background
Reference: not given
Reading: higher = stronger binding
Construct (chain): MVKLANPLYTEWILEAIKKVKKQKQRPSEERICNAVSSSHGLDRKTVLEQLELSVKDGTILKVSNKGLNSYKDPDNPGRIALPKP
For `AGCTCGGA`, the E-score was -0.0682.
`AAACTGGC` gave an E-score of -0.161.
The E-score of `AATGGGGC` is reported as -0.134.
For `ATACCGGA`, the E-score was 0.0728.
`ATTCCTGG` has an E-score of -0.0933.
The E-score of `AAACAAAC` is reported as -0.297.
With `AACTGCAT` the E-score was -0.179.
With `ATGGAGGG` the E-score was -0.155.
`CGGCGAAC` has an E-score of 0.38.
`TATCGATA` gave an E-score of -0.00473.
With `TATACGAA` the E-score was -0.233.
`ACACAAGA` has an E-score of -0.282.
The E-score of `CGGAGTTC` is reported as 0.217.
For `TGGTCACA`, the E-score was -0.0469.
The E-score of `ACCAATAA` is reported as -0.0322.
The E-score of `AGCCAGAC` is reported as -0.0807.
For `ACTGGACG`, the E-score was 0.077.
With `AGCGTAGC` the E-score was 0.164.
`ATCGCCAT` has an E-score of 0.0342.
`CAGGAGTC` gave an E-score of -0.11.
The E-score of `GTTGCGAA` is reported as -0.162.
With `GAGTTGGC` the E-score was -0.0508.
With `CTGTAAGA` the E-score was -0.101.
With `GCCATCGA` the E-score was 0.00946.
With `AAGAGTCC` the E-score was -0.16.

A few entries again (set 4):
The E-score of `ACCAATAA` is reported as -0.0322.
With `ATGGAGGG` the E-score was -0.155.
With `AAGAGTCC` the E-score was -0.16.
With `TATACGAA` the E-score was -0.233.
`ACACAAGA` has an E-score of -0.282.
With `GCCATCGA` the E-score was 0.00946.
